Experimental data gathered from unrelated publications.
Parts stem from different laboratories: compare values within a part only.

Sample 1 — technique: universal PBM; form: double-stranded DNA, one strand shown; matrix: in vitro; concentration: 600 nM; direction: higher = stronger binding
Target: Sal-like protein 4, full length isoform A (SALL4, Homo sapiens, UniProt Q9UJQ4, residues 1-1053)
UniProt Q9UJQ4, sequence (whole entry, looked up): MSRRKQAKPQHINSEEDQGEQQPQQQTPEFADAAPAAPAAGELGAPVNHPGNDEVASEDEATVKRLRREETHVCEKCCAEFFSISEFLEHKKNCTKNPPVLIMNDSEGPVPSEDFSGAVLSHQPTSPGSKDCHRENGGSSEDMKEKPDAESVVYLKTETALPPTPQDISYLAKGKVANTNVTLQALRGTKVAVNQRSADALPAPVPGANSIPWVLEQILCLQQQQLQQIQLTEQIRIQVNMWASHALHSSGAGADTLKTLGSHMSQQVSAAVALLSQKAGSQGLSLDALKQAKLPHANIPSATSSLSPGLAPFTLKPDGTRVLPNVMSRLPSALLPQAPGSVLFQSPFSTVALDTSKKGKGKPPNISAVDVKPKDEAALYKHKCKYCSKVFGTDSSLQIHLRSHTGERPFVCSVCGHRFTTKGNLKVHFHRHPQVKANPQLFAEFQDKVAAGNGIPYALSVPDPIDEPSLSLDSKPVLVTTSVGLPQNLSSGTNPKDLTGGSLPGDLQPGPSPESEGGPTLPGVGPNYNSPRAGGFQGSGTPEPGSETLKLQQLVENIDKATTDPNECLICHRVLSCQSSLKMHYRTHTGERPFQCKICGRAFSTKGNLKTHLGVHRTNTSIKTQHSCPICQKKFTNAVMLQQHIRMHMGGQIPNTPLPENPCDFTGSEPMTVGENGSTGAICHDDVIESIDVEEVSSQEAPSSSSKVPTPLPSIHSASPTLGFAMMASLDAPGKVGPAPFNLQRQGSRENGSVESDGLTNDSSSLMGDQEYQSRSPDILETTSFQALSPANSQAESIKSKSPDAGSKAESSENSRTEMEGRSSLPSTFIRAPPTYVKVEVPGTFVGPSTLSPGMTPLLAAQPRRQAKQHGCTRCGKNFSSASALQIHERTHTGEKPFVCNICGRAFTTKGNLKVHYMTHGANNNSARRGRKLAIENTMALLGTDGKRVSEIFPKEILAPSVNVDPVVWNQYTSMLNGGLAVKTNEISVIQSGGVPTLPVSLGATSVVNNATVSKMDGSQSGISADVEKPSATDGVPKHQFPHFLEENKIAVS
Setting: 8-mer, flanks averaged, mean of replicates
| Oligonucleotide | E-score |
| --- | --- |
| ACTGGTTG | -0.0921 |
| TAAGCGTA | 0.069 |
| GAAGGGAC | -0.145 |
| AAAGAATC | 0.0752 |
| GCAGACCA | -0.298 |
| GAGTGGGA | -0.117 |
| AGTGGCAG | -0.185 |

Sample 2 — technique: RNA Bind-n-Seq; form: RNA; matrix: in vitro; concentration: 365 nM; baseline: no-protein control; direction: higher = stronger binding
Target: RNA binding protein fox-1 homolog 2, RRM domain, GST-SBP tag (RBFOX2, Homo sapiens, UniProt O43251-10, residues 100-194)
Setting: natural RNA segment, single round, ends assumed
All sequences stand within: GGGAGUUCUACAGUCCGACGAUC … UGGAAUUCUCGGGUGCCAA
Residues (chain): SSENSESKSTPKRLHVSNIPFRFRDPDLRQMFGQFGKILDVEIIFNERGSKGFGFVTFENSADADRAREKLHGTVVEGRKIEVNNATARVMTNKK
| Oligonucleotide | RBNS enrichment (R) |
| --- | --- |
| GAAGUCCUUUUGCCUGCCGGGGAGCAAGCAAGGCCAGGGCACGGGGGCACAUUGGCUCACUUCCAGAAACACGACAAACCCAUUCCUGGCCCUGAGUCAAGAGGACAGAG | 0.53 |
| UCCUAAACGAAUGCCUAGCAUAGAGAAAAUACUUAAUACACAUUUGUUGACUUAAAUUUAAUUCAAGGAUUGAAAAAUUAACUGGAUAUCUUGAAAUAUACAGUAAUGAU | 1.42 |
| UGGAUCAUGUGAUCAUUGUGAACACCUCGUGAGCUUUAAAAUAAAGUCCACCCUGUGGUGUCAUUUCAAGCUGUUGGCUUUGUCUCCGAUCGGCAUUGGGAAAAGGAGUC | 0.431 |
| CCCAAACCCCUUCCCACGACAAAAACAAGACUGCCUCCCUCUCUUCCGGGAGCUGGUGACAGCCUUGGGCCUUUCAGUCCCAAAGCGGCCGAUGGGAGUCUCCCUCCGAC | 0.297 |
| CAGGGUGCACAGCAGGGCGGGGUAGGACCCCAGCCCCUCCCAAAACAGCCUCUCCUUCUCCCAUAGACCCCUUUCUUCUCCCCUUCCCCACGGUAGGAACAUAGCGUGUU | 0.432 |
| GUUACCGCCAAGGCCCGUCAGCUGUGUAGUGGCAAAGCCGAGACCGAGUCUCCUAAGUCCCCGUCAGUGUGGUUUUCACCACAGGACUGUCUCUUGUCGUUUUCCCCUAA | 0.369 |
| AUUGGACAGAUUUUAGGAGCAUGAUGUUUGCCUCCUCCGAGAGAGAGGAGUCAGAGAGAGAGAGGAGUCAGAAGGUGGCCGGAGUUAUCAUUGGGUCCCCUGAGCUCCAU | 5.43 |
| GUGCCUGGUGCAUUCCGAGGCUACAUCCAGGCUCAUGGAAGGAGUGUAGUAUUCAUUUAGCCAUGUCUGCCAUGGGUCCAGAAAUGGGAAAGGGAAUUGCUGUCCUUGCC | 0.936 |
| AAAAGAAAUAAAAUUGAACCAAAGGAUUUUCCCAGAAAAAAACAAGAAAGCAGUUUUAGAAGGCCAUGACUCAAUUCUUAGGUUUGUAUGCUUAAACAUCUUAGGAAUUU | 0.687 |

Sample 3 — technique: protein binding microarray; form: double-stranded DNA, one strand shown; matrix: in vitro; concentration: not given; baseline: not given; direction: higher = stronger binding
Target: Histone acetyltransferase KAT6A, winged helix 1, GST fusion (KAT6A, Homo sapiens, UniProt Q92794, residues 1-85)
Setting: 8-mer, flanks averaged, mean of 2 arrays, mostly near background
Construct (chain): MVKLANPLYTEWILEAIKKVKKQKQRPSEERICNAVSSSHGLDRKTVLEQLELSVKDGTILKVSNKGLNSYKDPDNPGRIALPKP
| Oligonucleotide | E-score |
| --- | --- |
| ACCTGGTC | 0.0144 |
| CCTCTTTA | -0.126 |
| AATCAGCT | -0.227 |
| CGATCCGA | 0.0978 |
| CGGATTGA | 0.122 |
| CTCGTGGC | 0.0291 |
| CCGGCCGG | 0.451 |
| CGCCAACG | 0.195 |
| ATCGATAA | 0.148 |
| CCCGTAAC | 0.337 |
| ACGGCAGT | 0.27 |
| AGCCTATA | -0.138 |

Single results of other studies
| Molecule | target | assay | system | conditions | scale | endpoint | result |
| --- | --- | --- | --- | --- | --- | --- | --- |
| PhoQ, residues 284 288 289 292 302 303 TNASYF | PhoP, residues 12 14 15 18 19 NYFTV (Escherichia coli, UniProt P23836) | Sort-seq, refers to: YFP reporter | E. coli | PhoQ-PhoP variant library, together with: 10 µM Mg2+ | baseline: high Mg2+ state, higher = stronger signaling | fold induction | 2.59 |

Some of these lines once more (sample 1):
| Oligonucleotide | E-score |
| --- | --- |
| GAAGGGAC | -0.145 |
| AAAGAATC | 0.0752 |
